Published values pooled from the literature.
Numbered parts are unrelated; each lists some results of a single study.

Set 1 — method: universal PBM; form: double-stranded DNA, one strand shown; sample: in vitro; concentration: not given; direction: higher = stronger binding
Target: Sal-like protein 4, full length isoform B (SALL4, Homo sapiens, UniProt Q9UJQ4-2, residues 1-616)
Notes: 8-mer, flanks averaged, mean of replicates
`AGTGGAAC` gave an E-score of 0.0144.
`CCATTGGC` has an E-score of -0.201.
With `CACAGACC` the E-score was -0.323.
`AACCAGCT` gave an E-score of -0.0542.
`GAGGATGC` has an E-score of -0.259.

Set 2 — method: EMSA with sequencing; form: double-stranded DNA, one strand shown; sample: in vitro; concentration: 10 and 20 nM; relative to: negative control set to 0; direction: higher = stronger binding
Target: Hepatocyte nuclear factor 3-alpha (Foxa1, Mus musculus, UniProt P35582, residues 1-468, full length assumed)
Notes: whole designed probe, mean of two concentrations, ends assumed
Target sequence (chain): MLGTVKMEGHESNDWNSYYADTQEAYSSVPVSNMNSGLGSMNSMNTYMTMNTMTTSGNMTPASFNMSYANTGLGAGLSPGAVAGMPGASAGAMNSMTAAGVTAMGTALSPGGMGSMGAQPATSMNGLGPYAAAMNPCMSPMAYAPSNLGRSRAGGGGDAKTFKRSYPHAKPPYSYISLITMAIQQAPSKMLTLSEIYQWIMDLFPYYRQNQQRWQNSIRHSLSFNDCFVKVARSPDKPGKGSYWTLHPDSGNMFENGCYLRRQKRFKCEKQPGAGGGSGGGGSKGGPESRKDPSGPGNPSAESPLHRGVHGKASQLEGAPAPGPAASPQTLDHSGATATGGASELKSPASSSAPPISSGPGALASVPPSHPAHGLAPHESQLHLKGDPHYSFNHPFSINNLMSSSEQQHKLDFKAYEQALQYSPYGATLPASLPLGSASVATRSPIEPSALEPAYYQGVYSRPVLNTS
`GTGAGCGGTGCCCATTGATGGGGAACTATTGGCATAAGGTTTATAATAGGATCTTGATGAACAGAAATACTGTACACTATTCTTAATTGTAATGTTCATGTCAACGGAGTGCATTAAGAGTAAATATTAGCTAGAAACATGGTAACTTGTTCCTCTACATGAAACACAAACAGGACAGAGATGGAAATCACTGGTCATAGCAAAAGGACCAAACTTTAGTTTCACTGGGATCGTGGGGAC`: “normalised bound fraction” 0.281 ratio.
`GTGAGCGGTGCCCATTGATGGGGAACATCTTCCCCCTCTTCCTTGCCCCACCAGCTCACCTTCCCGGGTTATTTGCAGATAGGAAAATAAATAAAGCCGGCATTCGTTAACCCTCTTCTGGCGCAAACTGCTGTTTGCTCTGGATGAATCATGGATGCGGCCGTGCCCCATTGTCCGGGAGAGCAAAGCACCGTGTCAGGGCCATGATCCGGGGTGGCCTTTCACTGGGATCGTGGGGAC` — result for “normalised bound fraction”: 0.352 ratio.
`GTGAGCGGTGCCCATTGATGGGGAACCTCAGATGGAACAGATGACCAGGGGTGACTCAGGACAGAGCAGGTGACCAGGGGAACAGATGTGAACTGCTGATTAGAACTGGTGGAAAAAGTAGATTACTGAAACTATGGGCGAGGAGAATGAGGAAGTTAAACTTTAAAATGGAGAACAAAGAACTGAACATACTGACATACTGATTCTTTGAAGAGAAATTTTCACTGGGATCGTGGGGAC`: “normalised bound fraction” 0.00884 ratio.
`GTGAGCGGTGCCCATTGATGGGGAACTTGCATAAAGATTTATAGTTTAAGGTGGAGGGAGGCAGAGTTCTGGTTGGCACCAAGTAACCCAGCTGTGGTGAAAATGGGACTAAAGGAAAGTAATCTAGGAAAGACTGACAAATGCACACTGTATTTTATAGAAAGCCTATGTCTGTGACTCTAGTGGTTTTAGTGAATCTGGAATACTTTATAATTCAATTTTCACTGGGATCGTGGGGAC` — result for “normalised bound fraction”: -0.0074 ratio.
`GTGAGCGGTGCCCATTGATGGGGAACACAAAAATTCTTGAGCCATTTCCAGATACCGAATCTGACTCAGTGTTGGCAAAACCTACAAAATGAGTGACCAAGAAGGATAAACAAGTTTAGGTAAACACTCTATAGACTGATTCATGATTTAAGTACATCAGTTAGCATTTAGCTTCATTTACCATCGTGTTTTAATGTCATTAAGAATGTAACTTCTTAGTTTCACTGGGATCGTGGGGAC` — result for “normalised bound fraction”: 0.266 ratio.

Set 3 — method: RNA Bind-n-Seq; form: RNA; sample: in vitro; concentration: 200 nM; notes: whole 134-nt RNA, ends assumed; together with: 150 mM KCl; relative to: input library; direction: higher = stronger binding
Target: Fragile X messenger ribonucleoprotein 1, C-terminal low-complexity region (Fmr1, Mus musculus, UniProt P35922)
With `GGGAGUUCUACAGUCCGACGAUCUCCUGUGCUACACAUCGUAUGUACCGAAUCGGGUUUUUGGGUUUUUGGGUUUUUUUGGGAAAGUAUUAUGUUACGCCGUUCGGAUCUGCAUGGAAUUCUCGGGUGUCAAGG` the log2 enrichment was 0.304.
For `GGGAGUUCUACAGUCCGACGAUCAGUCCUGUGCUACACAUCGUAUGUACCGAAUCGGAAAAAAAGGUUUUUUUGGUUUGGAAAGUAUUAUGUUACGCCGUUCGGAUCUGCACUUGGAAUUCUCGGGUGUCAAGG`, the log2 enrichment was -1.48.
With `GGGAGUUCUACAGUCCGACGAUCAGUCCUGUGCUACACAUCGUAUGUACCGAAUCGGGGUUUUUGGUUUUUGGUUUUUGGAAAGUAUUAUGUUACGCCGUUCGGAUCUGCACUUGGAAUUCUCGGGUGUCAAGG` the log2 enrichment was -0.684.
With `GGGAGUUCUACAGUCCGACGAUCAUUAAGGUCACCGUUGCAGGCCUGGCUGGAAAAGACCCAGUACAGUGUAGCCGUGAUGUGGUCAUUUGUCCUGAUGCCAGCCUUGAAGAUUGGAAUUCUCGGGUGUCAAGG` the log2 enrichment was -0.974.
`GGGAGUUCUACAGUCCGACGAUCCACAGACAACACGCAAACACACAGACACAGAGGGAAGGGGUUGGGAUGGGGACAGGGUGCACAGCAGGGCGGGGUAGGACCCCAGCCCCUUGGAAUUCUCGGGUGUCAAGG` has a log2 enrichment of 1.22.
With `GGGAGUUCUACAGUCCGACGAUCCAAGUCCUGUGCUACACAUCGUAUGUACCGAAUCGGAGGUUUUUUUGGUUUUUGGAAAGUAUUAUGUUACGCCGUUCGGAUCUGCACUUCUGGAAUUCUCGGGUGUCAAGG` the log2 enrichment was -0.916.

Other studies, line by line
`PhoQ, residues 284 288 289 292 302 303 TLASMF` gave a fold induction of 3.01 (PhoP, residues 12 14 15 18 19 STWGI (Escherichia coli, UniProt P23836); Sort-seq, refers to: YFP reporter; E. coli; PhoQ-PhoP variant library, together with: 10 µM Mg2+; relative to: high Mg2+ state, higher = stronger signaling).

A few entries again (set 2):
`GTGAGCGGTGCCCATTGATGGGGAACTTGCATAAAGATTTATAGTTTAAGGTGGAGGGAGGCAGAGTTCTGGTTGGCACCAAGTAACCCAGCTGTGGTGAAAATGGGACTAAAGGAAAGTAATCTAGGAAAGACTGACAAATGCACACTGTATTTTATAGAAAGCCTATGTCTGTGACTCTAGTGGTTTTAGTGAATCTGGAATACTTTATAATTCAATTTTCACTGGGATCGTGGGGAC` — result for “normalised bound fraction”: -0.0074 ratio.
`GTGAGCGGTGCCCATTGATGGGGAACATCTTCCCCCTCTTCCTTGCCCCACCAGCTCACCTTCCCGGGTTATTTGCAGATAGGAAAATAAATAAAGCCGGCATTCGTTAACCCTCTTCTGGCGCAAACTGCTGTTTGCTCTGGATGAATCATGGATGCGGCCGTGCCCCATTGTCCGGGAGAGCAAAGCACCGTGTCAGGGCCATGATCCGGGGTGGCCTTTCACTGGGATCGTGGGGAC` — result for “normalised bound fraction”: 0.352 ratio.
